Measured values gathered from unrelated publications.
Protocols differ between the studies behind these lines. ± marks the error that the study gave.

O=C(Nc1ccccc1OS(=O)(=O)c1cccs1)c1ccc2ncccc2c1 — fluorescence increase (P2X purinoceptor 2 (P2RX2, Homo sapiens, UniProt Q9UBL9); calcium mobilization; MCF7 stably transfected; 100 µM, with: ATP 100 µM): 63.3 ± 3.67%
CC(=O)Nc1ccc(S(=O)(=O)N2CCN(CC(O)COc3ccc4ccccc4c3)CC2)cc1 (stereo not drawn) — koff (Sodium channel protein type 8 subunit alpha, C-terminal domain (SCN8A, Homo sapiens, UniProt Q9UQD0); binder, SPR): 0.0185 ± 0.00048 s⁻¹
C=C1C(=O)O[C@@H]2C[C@@]3(C)CCCC(=C)[C@@H]3C[C@H]12 — activation (Nuclear receptor subfamily 4 group A member 1 (NR4A1, Homo sapiens, UniProt P22736); reporter gene, Gal4 hybrid reporter; 10 µM; reference: vehicle): 0.73 fold
Nc1nnc(-c2cccc(Cl)c2Cl)c(N)n1 — fast onset component (SCN5A (Homo sapiens, UniProt Q14524); sodium current block kinetics, patch clamp; 280 µM, holding potential -120 mV): 92%
Cc1cc(Nc2cc(N3CCN(C)CC3)nc(Sc3ccc(NC(=O)C4CC4)cc3)n2)[nH]n1 — remaining activity (MST1R (Homo sapiens, UniProt Q04912); kinase activity, KinaseProfiler; 0.03 µM, species human; reference: control): 77%
NCCCC(=O)O — normalised MST signal (SLC6A6 (Homo sapiens, UniProt P31641, Y138A); binding, microscale thermophoresis; 250 µM, room temperature, with: 50 nM labelled protein; higher = more binding): -0.0169
O=C1CCC(N2Cc3cc(NC(=O)c4cn5ccccc5n4)ccc3C2=O)C(=O)N1 (stereo not drawn) — time to efficient degradation (Cereblon/Casein kinase I alpha (CSNK1A1/CRBN, Homo sapiens, UniProt P48729+Q96SW2); degrader, Western blot; MOLT-4; 1 µM): ≤ 30 min
c1coc(-c2n[nH]cc2-c2ccnc3ccccc23)c1 — log2 fold change (Serine/threonine-protein kinase CST20 (CST20, Candida albicans, UniProt P0CY24); kinase binding, MIB/MS competition; Candida albicans lysate; 1 µM; reference: DMSO, negative = stronger binding): -1.02
CC1CCCN(C(=O)c2cc3ncccn3n2)C1 (stereo not drawn) — fold enrichment (ATP-dependent RNA helicase DDX1 (Homo sapiens, UniProt Q92499); binding, affinity selection mass spectrometry; reference: other proteins in batch): 0.68
O=C(O)c1cncc(-c2ccc3[nH]ccc3c2)c1 — ligand efficiency (Tumor necrosis factor receptor superfamily member 1A, extracellular domain (Homo sapiens, UniProt P19438); binding, SPR): 0.29
CC(=O)N[C@H](C(=O)N[C@@H](CC(N)=O)C(=O)N[C@@H](CCCCN)C(=O)N1CCC[C@H]1C(=O)N[C@@H](CC(C)C)C(=O)N1CCC[C@H]1C(=O)N1CCC[C@H]1C(=O)N[C@@H](CC(C)C)C(=O)N1CCC[C@H]1C(=O)N[C@H](C(=O)N[C@@H](C)C(N)=O)C(C)C)C(C)C — -TΔS (High osmolarity signaling protein SHO1, SH3 domain (SHO1, Saccharomyces cerevisiae, UniProt P40073); binding, isothermal titration calorimetry; 50 mM sodium phosphate, 100 mM NaCl; pH 7.0, 25 °C): -0.598 ± 0.0239 kcal/mol
O=C(Nc1cccc2c(=O)cc(-c3nnn[nH]3)oc12)c1ccc(OCCCCc2ccccc2)cc1 — inhibition (LRRC8A/LRRC8C (Homo sapiens, UniProt Q8IWT6+Q8TDW0, E6A); VRAC current, inhibitor, whole-cell patch clamp; HCT116 LRRC8-/- cells; 10 µM): 88.5%

Some of these lines once more:
O=C(O)c1cncc(-c2ccc3[nH]ccc3c2)c1 — ligand efficiency (Tumor necrosis factor receptor superfamily member 1A, extracellular domain (Homo sapiens, UniProt P19438); binding, SPR): 0.29
